Published values of several laboratories.
Lines come from different studies, so protocols differ. ± gives the spread as reported.
gag-pol integrase with LEDGF/p75: Gag-Pol polyprotein, integrase with LEDGF/p75 (gag-pol, Human immunodeficiency virus 1, UniProt P12497)
STAT1 SH2 domain: Signal transducer and activator of transcription 1-alpha/beta, SH2 domain (STAT1, Homo sapiens, UniProt P42224)
UniProt P42224, sequence (whole entry, looked up): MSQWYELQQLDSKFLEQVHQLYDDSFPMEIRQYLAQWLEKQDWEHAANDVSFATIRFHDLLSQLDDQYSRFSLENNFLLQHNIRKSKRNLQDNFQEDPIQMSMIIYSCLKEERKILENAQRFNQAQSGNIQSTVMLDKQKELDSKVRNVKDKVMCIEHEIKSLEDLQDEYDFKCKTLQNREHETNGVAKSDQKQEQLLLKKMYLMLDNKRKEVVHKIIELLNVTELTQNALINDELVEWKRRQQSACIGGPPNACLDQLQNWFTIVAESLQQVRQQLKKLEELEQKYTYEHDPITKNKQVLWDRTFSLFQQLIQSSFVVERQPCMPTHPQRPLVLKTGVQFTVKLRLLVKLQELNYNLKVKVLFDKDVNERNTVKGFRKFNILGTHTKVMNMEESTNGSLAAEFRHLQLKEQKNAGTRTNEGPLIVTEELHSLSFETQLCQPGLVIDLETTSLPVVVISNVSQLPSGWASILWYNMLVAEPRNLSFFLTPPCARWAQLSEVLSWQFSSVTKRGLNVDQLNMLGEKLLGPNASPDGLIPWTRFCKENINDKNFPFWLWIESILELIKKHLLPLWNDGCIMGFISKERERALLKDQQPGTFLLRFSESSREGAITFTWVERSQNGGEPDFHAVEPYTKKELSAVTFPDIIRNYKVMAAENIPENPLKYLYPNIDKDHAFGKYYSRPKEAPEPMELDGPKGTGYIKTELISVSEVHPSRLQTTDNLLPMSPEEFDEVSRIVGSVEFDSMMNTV
BCHE: Cholinesterase (BCHE, Homo sapiens, UniProt P06276)
UniProt P06276, sequence (whole entry, looked up): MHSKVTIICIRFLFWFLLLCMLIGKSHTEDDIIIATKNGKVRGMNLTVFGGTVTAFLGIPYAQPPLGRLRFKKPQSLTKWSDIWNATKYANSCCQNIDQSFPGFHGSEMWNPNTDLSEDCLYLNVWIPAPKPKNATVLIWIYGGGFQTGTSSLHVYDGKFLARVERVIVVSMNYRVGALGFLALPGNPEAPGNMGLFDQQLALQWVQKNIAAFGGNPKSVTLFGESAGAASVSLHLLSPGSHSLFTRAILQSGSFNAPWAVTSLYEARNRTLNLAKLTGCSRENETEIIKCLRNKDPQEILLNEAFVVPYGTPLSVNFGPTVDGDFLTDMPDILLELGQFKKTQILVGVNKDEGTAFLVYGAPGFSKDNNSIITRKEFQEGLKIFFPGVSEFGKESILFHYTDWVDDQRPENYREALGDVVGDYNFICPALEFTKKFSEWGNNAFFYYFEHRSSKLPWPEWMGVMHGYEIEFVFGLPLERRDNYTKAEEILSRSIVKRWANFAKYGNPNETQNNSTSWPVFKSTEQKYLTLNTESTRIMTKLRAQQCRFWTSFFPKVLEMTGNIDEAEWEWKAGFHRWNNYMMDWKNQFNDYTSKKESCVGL
UniProt Q92743, sequence (whole entry, looked up): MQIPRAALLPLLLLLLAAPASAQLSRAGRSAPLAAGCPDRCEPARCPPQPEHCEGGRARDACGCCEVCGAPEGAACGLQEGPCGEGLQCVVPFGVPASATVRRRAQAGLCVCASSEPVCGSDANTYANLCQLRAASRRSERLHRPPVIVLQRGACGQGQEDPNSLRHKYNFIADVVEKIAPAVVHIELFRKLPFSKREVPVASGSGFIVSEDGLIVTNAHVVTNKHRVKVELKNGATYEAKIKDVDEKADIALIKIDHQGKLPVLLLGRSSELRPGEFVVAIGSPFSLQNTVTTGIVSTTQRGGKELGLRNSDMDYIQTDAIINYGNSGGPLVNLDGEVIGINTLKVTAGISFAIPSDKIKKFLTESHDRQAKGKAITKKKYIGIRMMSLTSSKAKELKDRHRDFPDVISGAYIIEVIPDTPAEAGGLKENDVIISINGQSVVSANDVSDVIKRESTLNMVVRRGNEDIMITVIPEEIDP
UniProt P07332, sequence (whole entry, looked up): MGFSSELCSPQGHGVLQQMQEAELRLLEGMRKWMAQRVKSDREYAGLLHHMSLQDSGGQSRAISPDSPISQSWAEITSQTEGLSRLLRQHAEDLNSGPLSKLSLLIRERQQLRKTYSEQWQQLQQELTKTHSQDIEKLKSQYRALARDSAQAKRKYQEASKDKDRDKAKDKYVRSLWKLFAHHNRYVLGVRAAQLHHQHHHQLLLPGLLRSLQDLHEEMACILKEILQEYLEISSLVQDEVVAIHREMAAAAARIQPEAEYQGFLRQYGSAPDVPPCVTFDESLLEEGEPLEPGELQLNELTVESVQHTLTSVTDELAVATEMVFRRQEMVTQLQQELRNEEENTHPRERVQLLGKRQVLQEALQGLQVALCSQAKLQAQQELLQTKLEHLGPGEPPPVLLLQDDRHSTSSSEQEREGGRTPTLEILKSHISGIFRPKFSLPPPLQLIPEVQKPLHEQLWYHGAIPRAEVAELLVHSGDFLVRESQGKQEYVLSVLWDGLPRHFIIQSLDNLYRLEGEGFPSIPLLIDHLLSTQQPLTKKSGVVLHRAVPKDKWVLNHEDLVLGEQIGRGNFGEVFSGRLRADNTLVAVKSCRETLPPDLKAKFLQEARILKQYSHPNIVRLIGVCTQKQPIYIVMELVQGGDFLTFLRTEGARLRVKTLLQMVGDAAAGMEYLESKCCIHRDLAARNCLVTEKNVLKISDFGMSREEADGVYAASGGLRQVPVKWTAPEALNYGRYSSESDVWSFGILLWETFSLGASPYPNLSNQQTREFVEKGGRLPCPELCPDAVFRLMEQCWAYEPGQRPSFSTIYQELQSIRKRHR
UniProt P38489, sequence (whole entry, looked up): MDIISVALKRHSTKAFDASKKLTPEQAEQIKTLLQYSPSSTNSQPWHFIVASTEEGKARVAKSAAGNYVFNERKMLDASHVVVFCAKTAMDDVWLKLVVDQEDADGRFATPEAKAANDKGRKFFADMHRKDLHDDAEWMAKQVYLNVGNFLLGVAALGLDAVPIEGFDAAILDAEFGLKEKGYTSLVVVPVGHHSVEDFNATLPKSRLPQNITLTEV
UniProt P68082, sequence (whole entry, looked up): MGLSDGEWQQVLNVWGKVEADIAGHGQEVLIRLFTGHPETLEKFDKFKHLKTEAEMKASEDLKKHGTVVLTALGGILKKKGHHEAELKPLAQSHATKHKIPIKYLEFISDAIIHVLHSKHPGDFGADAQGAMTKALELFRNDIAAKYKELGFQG
UniProt Q9NWS0, sequence (51-180, unmodified, looked up): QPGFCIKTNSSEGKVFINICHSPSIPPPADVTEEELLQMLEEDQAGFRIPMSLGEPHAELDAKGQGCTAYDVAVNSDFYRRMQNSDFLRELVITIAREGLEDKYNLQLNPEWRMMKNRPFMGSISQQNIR
UniProt Q08460, sequence (whole entry, looked up): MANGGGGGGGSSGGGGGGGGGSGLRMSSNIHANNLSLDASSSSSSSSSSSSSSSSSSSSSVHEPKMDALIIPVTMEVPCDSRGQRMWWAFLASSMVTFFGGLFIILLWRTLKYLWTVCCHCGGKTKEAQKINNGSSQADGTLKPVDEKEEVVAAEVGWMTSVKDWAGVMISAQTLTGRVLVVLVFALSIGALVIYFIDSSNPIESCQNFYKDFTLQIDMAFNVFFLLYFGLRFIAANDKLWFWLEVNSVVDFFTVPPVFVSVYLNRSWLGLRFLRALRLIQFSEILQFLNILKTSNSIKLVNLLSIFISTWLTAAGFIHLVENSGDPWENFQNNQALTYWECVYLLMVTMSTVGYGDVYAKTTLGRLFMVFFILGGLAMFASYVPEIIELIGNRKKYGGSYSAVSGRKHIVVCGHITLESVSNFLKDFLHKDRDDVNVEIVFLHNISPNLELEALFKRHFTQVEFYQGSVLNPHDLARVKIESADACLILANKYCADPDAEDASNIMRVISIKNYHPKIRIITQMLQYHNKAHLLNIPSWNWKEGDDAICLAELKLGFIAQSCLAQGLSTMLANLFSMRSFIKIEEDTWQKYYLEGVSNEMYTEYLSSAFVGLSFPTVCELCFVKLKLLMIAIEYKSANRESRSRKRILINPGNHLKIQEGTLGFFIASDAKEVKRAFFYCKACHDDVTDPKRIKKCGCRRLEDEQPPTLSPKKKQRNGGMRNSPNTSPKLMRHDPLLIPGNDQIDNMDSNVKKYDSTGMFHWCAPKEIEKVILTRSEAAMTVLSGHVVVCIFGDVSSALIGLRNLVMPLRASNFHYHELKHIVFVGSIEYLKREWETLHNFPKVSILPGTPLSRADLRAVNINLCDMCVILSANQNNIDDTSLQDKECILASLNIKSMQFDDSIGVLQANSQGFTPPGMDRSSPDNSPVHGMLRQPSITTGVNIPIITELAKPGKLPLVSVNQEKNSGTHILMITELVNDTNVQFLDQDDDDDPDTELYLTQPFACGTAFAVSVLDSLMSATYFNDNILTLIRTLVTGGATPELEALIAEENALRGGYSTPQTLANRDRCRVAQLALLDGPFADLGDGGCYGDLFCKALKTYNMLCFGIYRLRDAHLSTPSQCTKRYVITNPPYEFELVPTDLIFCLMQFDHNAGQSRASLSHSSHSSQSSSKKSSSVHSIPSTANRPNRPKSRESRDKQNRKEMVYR
UniProt P37231, sequence (whole entry, looked up): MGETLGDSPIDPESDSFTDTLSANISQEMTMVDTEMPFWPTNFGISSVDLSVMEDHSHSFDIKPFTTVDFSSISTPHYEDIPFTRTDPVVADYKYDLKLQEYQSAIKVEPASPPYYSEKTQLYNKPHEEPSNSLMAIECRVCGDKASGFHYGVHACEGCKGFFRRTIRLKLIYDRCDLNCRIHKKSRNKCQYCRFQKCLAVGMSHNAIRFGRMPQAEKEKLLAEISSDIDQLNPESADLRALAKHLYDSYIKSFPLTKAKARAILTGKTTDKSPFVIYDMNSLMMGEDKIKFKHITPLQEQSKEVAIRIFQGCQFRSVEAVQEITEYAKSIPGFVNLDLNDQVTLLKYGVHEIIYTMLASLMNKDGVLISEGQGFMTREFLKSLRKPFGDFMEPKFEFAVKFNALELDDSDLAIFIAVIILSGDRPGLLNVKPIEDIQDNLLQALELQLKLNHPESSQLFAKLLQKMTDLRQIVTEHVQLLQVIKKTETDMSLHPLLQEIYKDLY

For `CC1=C(N(C)C)C(=O)c2ccccc2C1=O`, the Kd was 0.06 µM (Reaction center protein M chain, QA site (pufM, Cereibacter sphaeroides, UniProt P0C0Y9); QA site binding; LDAO detergent solution; pH 7.8, 298 K, added: 1 µM reaction centres).
With `O=C(N/N=C/c1ccc(Cl)cc1Cl)c1n[nH]c2c1CCC2` the IC50 was over 50 µM (gag-pol integrase with LEDGF/p75; LEDGF/p75-integrase interaction, inhibitor, AlphaScreen).
`Nc1ncnc2c1ncn2[C@@H]1O[C@H](COP(=O)(O)OP(=O)(O)OP(=O)(O)O)[C@@H](O)[C@H]1O` has a Kd of 18.4 µM (Receptor-like protein kinase FERONIA (FER, Arabidopsis thaliana, UniProt Q9SCZ4); binding, SPR steady-state; kinase domain).
`CC(C)C[C@H](NC(=O)[C@@H](NC(=O)[C@H](CO)NC(=O)[C@H](CO)NC(=O)[C@@H](NC(=O)[C@H](CC(=O)O)NC(=O)[C@H](CC(C)C)NC(=O)[C@@H]1CCCN1C(=O)[C@H](CO)NC(=O)c1ccc2c(c1)C(=O)OC21c2ccc(N(C)C)cc2Oc2cc(N(C)C)ccc21)[C@@H](C)O)C(C)C)C(=O)N[C@@H](Cc1ccc(OP(=O)(O)O)cc1)C(=O)N[C@H](C(=O)N[C@@H](C)C(=O)N[C@H](C(=O)N[C@@H](CCC(N)=O)C(=O)N1CCC[C@H]1C(=O)N[C@@H](CC(N)=O)C(=O)N[C@@H](CCC(=O)O)C(=O)N[C@@H](CC(=O)O)C(=O)O)C(C)C)[C@@H](C)O` gave a Kd of 0.744 µM (Cytoplasmic tyrosine-protein kinase BMX, SH2 domain (BMX, Homo sapiens, UniProt P51813); binding).
With `O=C(O)CCCN1CC=C(c2ccccc2)CC1` the Kd was over 1000 µM (Ubiquitin carboxyl-terminal hydrolase 16, ZnF-UBD domain (USP16, Homo sapiens, UniProt Q9Y5T5)).
For `NC(=O)N/N=C/c1ccc([N+](=O)[O-])o1`, the Kd was 35 ± 1 µM (nfsB (Escherichia coli K-12, UniProt P38489); binding; Escherichia coli).
The Kd of `CC(C)C[C@H](NC(=O)[C@@H](N)CC(=O)O)C(=O)N[C@@H](CC(=O)O)C(=O)N[C@@H](COP(=O)(O)O)C(=O)N[C@@H](CC(=O)O)C(=O)N[C@@H](CC(=O)O)C(=O)N[C@@H](CCC(=O)O)C(=O)N[C@@H](Cc1ccc(O)cc1)C(=O)O` is reported as over 112 µM (PIH1 domain-containing protein 1, residues 51-180 (PIH1D1, Homo sapiens, UniProt Q9NWS0, R168A); ITC; 20 °C, mutant protein).
With `CC1=C(CO)C(=O)O[C@@H]([C@@H](C)[C@H]2CC[C@H]3[C@@H]4C[C@H]5O[C@]56[C@@H](O)C=CC(=O)[C@]6(C)[C@H]4CC[C@]23C)C1` the Kd was 0.0139 µM (KPNB1 (Homo sapiens, UniProt Q14974); microscale thermophoresis).
`N=C(N)NC(N)=O` has a Kd of 70 µM (Gdx-Clo, Clostridiales oral taxon 876; tryptophan fluorescence titration, ITC; pH-independent fit).
`CC[C@H](C)[C@H](NC(=O)[C@H](Cc1ccc(OP(=O)(O)O)cc1)NC(=O)[C@H](CCC(=O)O)NC(=O)[C@H](Cc1c[nH]cn1)NC(=O)CNC(=O)[C@H](CC(=O)O)NC(=O)[C@H](CO)NC(=O)[C@H](CO)NC(=O)[C@@H](NC(=O)[C@H](CO)NC(=O)[C@H](CCC(=O)O)NC(=O)c1ccc2c(c1)C(=O)OC21c2ccc(N(C)C)cc2Oc2cc(N(C)C)ccc21)C(C)C)C(=O)N[C@@H](Cc1ccc(O)cc1)C(=O)N[C@H](C(=O)N[C@@H](CC(=O)O)C(=O)N1CCC[C@H]1C(=O)N[C@@H](CCSC)C(=O)N[C@@H](CCC(N)=O)C(=O)N[C@@H](CC(=O)O)C(=O)O)C(C)C` gave a Kd of 1.43 µM (STAT1 SH2 domain; binding).
The IC50 of `C[N+](C)(CCOc1ccccc1)Cc1cccs1` is reported as 3.31 ± 0.22 µM (BCHE; inhibitor).
`CC(C)C[C@H](NC(=O)[C@H](CC(=O)O)NC(=O)[C@H](CC(=O)O)NC(=O)[C@H](CC(=O)O)NC(=O)[C@@H](NC(=O)[C@H](Cc1c[nH]c2ccccc12)NC(=O)[C@@H](N)CCC(=O)O)[C@@H](C)O)C(=O)N[C@@H](CO)C(=O)N[C@H](C(=O)N[C@@H](CC(=O)O)C(=O)N[C@@H](C)C(=O)O)C(C)C` has a Kd of 38.9 µM (Serine protease HTRA1, PDZ domain (Homo sapiens, UniProt Q92743); isothermal titration calorimetry; isolated PDZ domain; pH 8.0).
`Nc1ncnc2c1ncn2[C@@H]1O[C@H](COP(=O)(O)OP(=O)(O)OP(=O)(O)O)[C@@H](O)[C@H]1O` gave a Kd of 4.4 ± 0.4 µM (matB (Rhodopseudomonas palustris, UniProt Q6ND88, C106A/K488A/Q457C/R286C); binding; Bicine buffer; pH 8.5).
`CC[C@H](C)[C@H](NC(=O)[C@H](CCC(N)=O)NC(=O)[C@@H](NC(=O)[C@@H]1CCCN1C(=O)[C@@H](NC(=O)[C@H](CO)NC(=O)[C@H](Cc1ccccc1)NC(=O)[C@@H]1CCCN1C(=O)[C@H](CCC(N)=O)NC(=O)[C@@H](N)CCSC)[C@@H](C)CC)C(C)C)C(=O)N[C@H](C(=O)N[C@@H](CC(C)C)C(=O)N[C@@H](CCC(N)=O)C(=O)NCC(=O)N[C@@H](CO)C(=O)N[C@@H](CCCNC(=N)N)C(=O)N[C@@H](CCCNC(=N)N)C(=O)N[C@@H](CCCNC(=N)N)C(=O)N[C@@H](CCC(N)=O)C(=O)NCC(=O)N[C@@H](CCCNC(=N)N)C(N)=O)[C@@H](C)O` has a Kd of 8 µM (Kcnma1 (Mus musculus, UniProt Q08460); ion current, blocker, inside-out patch clamp; Xenopus oocytes; range over 1 µM, pH 7.0, 22–24 °C, at 0 mV, added: 10 µM cytosolic Ca2+).
With `O=C(N/N=C/c1ccc(Cl)cc1Cl)c1cnccn1` the IC50 was over 50 µM (gag-pol integrase with LEDGF/p75; LEDGF/p75-integrase interaction, inhibitor, AlphaScreen).
With `CC(C)C[C@H](NC(=O)[C@H](Cc1ccc(OP(=O)(O)O)cc1)NC(=O)[C@H](CCC(=O)O)NC(=O)[C@@H]1CCCN1C(=O)[C@H](CC(N)=O)NC(=O)CNC(=O)[C@@H](NC(=O)[C@H](C)NC(=O)[C@@H](NC(=O)[C@H](CO)NC(=O)[C@H](Cc1c[nH]cn1)NC(=O)c1ccc2c(c1)C(=O)OC21c2ccc(N(C)C)cc2Oc2cc(N(C)C)ccc21)[C@@H](C)O)C(C)C)C(=O)N[C@@H](CC(N)=O)C(=O)N[C@H](C(=O)N[C@H](C(=O)N[C@@H](CCC(N)=O)C(=O)N1CCC[C@H]1C(=O)N[C@H](C(=O)N[C@@H](CC(=O)O)C(=O)O)[C@@H](C)O)C(C)C)[C@@H](C)O` the Kd was 0.388 µM (Ras GTPase-activating protein 1, SH2 domains (RASA1, Homo sapiens, UniProt P20936); binding).
The Kd of `CC[C@H](C)[C@H](NC(=O)[C@H](CCCCN)NC(=O)[C@H](Cc1c[nH]cn1)NC(=O)[C@H](CCCCN)NC(=O)[C@H](CCC(=O)O)NC(=O)[C@H](CCCCN)NC(=O)[C@H](CC(C)C)NC(=O)c1ccc2c(c1)C(=O)OC21c2ccc(O)cc2Oc2cc(O)ccc21)C(=O)N[C@@H](CC(C)C)C(=O)N[C@@H](Cc1c[nH]cn1)C(=O)N[C@@H](CCCNC(=N)N)C(=O)N[C@@H](CC(C)C)C(=O)N[C@@H](CC(C)C)C(=O)N[C@@H](CCC(N)=O)C(=O)N[C@@H](CC(=O)O)C(=O)N[C@@H](CO)C(=O)N[C@@H](CO)C(=O)N[C@@H](CO)C(=O)N1CCC[C@H]1C(=O)N[C@H](C(=O)O)C(C)C` is reported as 27.6 µM (PPARG (Homo sapiens, UniProt P37231); binding).
`CSCC[C@H](NC(=O)CNC(=O)[C@H](Cc1ccccc1)NC(=O)[C@H](CC(=O)O)NC(=O)CNC(=O)c1ccc2c(c1)C(=O)OC21c2ccc(N(C)C)cc2Oc2cc(N(C)C)ccc21)C(=O)N[C@@H](CO)C(=O)N[C@@H](CCCNC(=N)N)C(=O)N[C@@H](CC(=O)O)C(=O)N[C@H](C(=O)N[C@@H](Cc1ccc(OP(=O)(O)O)cc1)C(=O)N[C@@H](CO)C(=O)N[C@H](C(=O)N[C@@H](CC(=O)O)C(=O)N[C@@H](Cc1ccc(O)cc1)C(=O)N[C@@H](Cc1ccc(O)cc1)C(=O)N[C@@H](CCCNC(=N)N)C(=O)N[C@H](C(=O)N[C@@H](CC(=O)O)C(=O)O)C(C)C)[C@@H](C)O)C(C)C` has a Kd of 0.744 µM (SH2B adapter protein 1, SH2 domain (SH2B1, Homo sapiens, UniProt Q9NRF2); binding).
For `S`, the Kd was 96 ± 12 µM (MB, Fe(III) state (Equus caballus, UniProt P68082); stopped-flow UV-visible titration).
`CSCC[C@H](NC(=O)[C@H](CC(C)C)NC(=O)[C@H](C)NC(=O)[C@H](CCCNC(=N)N)NC(=O)[C@H](Cc1ccc(OP(=O)(O)O)cc1)NC(=O)[C@H](Cc1ccccc1)NC(=O)[C@H](CC(N)=O)NC(=O)[C@H](CO)NC(=O)[C@H](CC(=O)O)NC(=O)[C@@H](NC(=O)[C@@H]1CCCN1C(=O)[C@H](CO)NC(=O)[C@@H]1CCCN1C(=O)[C@H](CC(C)C)NC(=O)c1ccc2c(c1)C(=O)OC21c2ccc(N(C)C)cc2Oc2cc(N(C)C)ccc21)[C@@H](C)O)C(=O)N[C@@H](CC(=O)O)C(=O)N[C@@H](CCC(=O)O)C(=O)N[C@@H](CCC(=O)O)C(=O)N[C@@H](CC(=O)O)C(=O)O` has a Kd of 1.23 µM (Tyrosine-protein kinase Fes/Fps, SH2 domain (FES, Homo sapiens, UniProt P07332); binding).
With `C[C@@H](C1=C(CCN(C)C)Cc2ccccc21)c1ccccn1` the IC50 was 2.1 ± 0.29 µM (BCHE; inhibitor).
The Kd of `CSCC[C@H](NC(=O)[C@H](Cc1ccc(OP(=O)(O)O)cc1)NC(=O)CNC(=O)CNC(=O)[C@H](CC(=O)O)NC(=O)[C@H](CO)NC(=O)[C@H](CCC(=O)O)NC(=O)CNC(=O)[C@@H](NC(=O)[C@H](CC(C)C)NC(=O)[C@H](CO)NC(=O)c1ccc2c(c1)C(=O)OC21c2ccc(N(C)C)cc2Oc2cc(N(C)C)ccc21)[C@@H](C)O)C(=O)N[C@@H](CC(=O)O)C(=O)N[C@@H](CCSC)C(=O)N[C@@H](CO)C(=O)N[C@@H](CCCCN)C(=O)N[C@@H](CC(=O)O)C(=O)N[C@@H](CCC(=O)O)C(=O)N[C@@H](CC(=O)O)C(=O)O` is reported as 1.36 µM (STAT1 SH2 domain; binding).
With `CN1C2CCCC1CC(NC(=O)c1nn(C)c3ccccc13)C2` (centres unmarked) the Kd was 2.17 ± 0.163 µM (Soluble acetylcholine receptor (Aplysia californica, UniProt Q8WSF8, K160T/Q74R/S111E/V159L/Y212A); homologous radioligand competition).

A few entries again:
`CC(C)C[C@H](NC(=O)[C@H](CC(=O)O)NC(=O)[C@H](CC(=O)O)NC(=O)[C@H](CC(=O)O)NC(=O)[C@@H](NC(=O)[C@H](Cc1c[nH]c2ccccc12)NC(=O)[C@@H](N)CCC(=O)O)[C@@H](C)O)C(=O)N[C@@H](CO)C(=O)N[C@H](C(=O)N[C@@H](CC(=O)O)C(=O)N[C@@H](C)C(=O)O)C(C)C` has a Kd of 38.9 µM (Serine protease HTRA1, PDZ domain (Homo sapiens, UniProt Q92743); isothermal titration calorimetry; isolated PDZ domain; pH 8.0).
With `C[C@@H](C1=C(CCN(C)C)Cc2ccccc21)c1ccccn1` the IC50 was 2.1 ± 0.29 µM (BCHE; inhibitor).
